Measurements of several laboratories.
Lines come from different studies, so protocols differ. Values joined by “and” are separate records of one study, mostly repeats; a detail may differ. ± marks the error that the study gave.
T1: riboswitch RNA U39C; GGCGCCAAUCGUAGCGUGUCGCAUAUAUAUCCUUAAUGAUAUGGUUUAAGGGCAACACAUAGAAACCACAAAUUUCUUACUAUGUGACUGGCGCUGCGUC
Sequence of UniProt P30531 (whole entry, looked up): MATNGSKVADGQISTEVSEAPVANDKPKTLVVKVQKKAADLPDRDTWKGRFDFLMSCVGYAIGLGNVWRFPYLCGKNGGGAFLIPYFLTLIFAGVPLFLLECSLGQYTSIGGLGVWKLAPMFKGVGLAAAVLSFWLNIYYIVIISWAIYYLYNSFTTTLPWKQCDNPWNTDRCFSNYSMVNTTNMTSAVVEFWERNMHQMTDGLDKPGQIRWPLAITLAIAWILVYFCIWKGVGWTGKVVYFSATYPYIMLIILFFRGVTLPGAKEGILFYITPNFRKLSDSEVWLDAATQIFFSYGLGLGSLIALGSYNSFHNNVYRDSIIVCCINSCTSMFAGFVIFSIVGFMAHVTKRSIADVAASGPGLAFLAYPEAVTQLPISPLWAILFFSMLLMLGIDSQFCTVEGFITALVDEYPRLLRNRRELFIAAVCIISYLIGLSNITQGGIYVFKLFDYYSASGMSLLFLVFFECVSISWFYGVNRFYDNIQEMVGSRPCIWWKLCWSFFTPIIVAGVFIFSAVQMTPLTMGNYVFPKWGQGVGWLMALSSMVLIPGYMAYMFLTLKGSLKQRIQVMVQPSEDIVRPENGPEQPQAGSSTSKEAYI
Sequence of UniProt O75030 (1-296, unmodified, looked up): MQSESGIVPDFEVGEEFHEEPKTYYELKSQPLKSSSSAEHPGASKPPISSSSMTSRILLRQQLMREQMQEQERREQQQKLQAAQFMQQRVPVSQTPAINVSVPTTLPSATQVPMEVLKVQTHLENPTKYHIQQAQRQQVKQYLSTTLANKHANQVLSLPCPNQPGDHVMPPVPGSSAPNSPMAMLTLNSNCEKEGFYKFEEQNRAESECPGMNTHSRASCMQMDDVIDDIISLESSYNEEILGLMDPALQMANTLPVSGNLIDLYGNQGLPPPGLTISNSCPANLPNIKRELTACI
Sequence of UniProt P30958 (whole entry, looked up): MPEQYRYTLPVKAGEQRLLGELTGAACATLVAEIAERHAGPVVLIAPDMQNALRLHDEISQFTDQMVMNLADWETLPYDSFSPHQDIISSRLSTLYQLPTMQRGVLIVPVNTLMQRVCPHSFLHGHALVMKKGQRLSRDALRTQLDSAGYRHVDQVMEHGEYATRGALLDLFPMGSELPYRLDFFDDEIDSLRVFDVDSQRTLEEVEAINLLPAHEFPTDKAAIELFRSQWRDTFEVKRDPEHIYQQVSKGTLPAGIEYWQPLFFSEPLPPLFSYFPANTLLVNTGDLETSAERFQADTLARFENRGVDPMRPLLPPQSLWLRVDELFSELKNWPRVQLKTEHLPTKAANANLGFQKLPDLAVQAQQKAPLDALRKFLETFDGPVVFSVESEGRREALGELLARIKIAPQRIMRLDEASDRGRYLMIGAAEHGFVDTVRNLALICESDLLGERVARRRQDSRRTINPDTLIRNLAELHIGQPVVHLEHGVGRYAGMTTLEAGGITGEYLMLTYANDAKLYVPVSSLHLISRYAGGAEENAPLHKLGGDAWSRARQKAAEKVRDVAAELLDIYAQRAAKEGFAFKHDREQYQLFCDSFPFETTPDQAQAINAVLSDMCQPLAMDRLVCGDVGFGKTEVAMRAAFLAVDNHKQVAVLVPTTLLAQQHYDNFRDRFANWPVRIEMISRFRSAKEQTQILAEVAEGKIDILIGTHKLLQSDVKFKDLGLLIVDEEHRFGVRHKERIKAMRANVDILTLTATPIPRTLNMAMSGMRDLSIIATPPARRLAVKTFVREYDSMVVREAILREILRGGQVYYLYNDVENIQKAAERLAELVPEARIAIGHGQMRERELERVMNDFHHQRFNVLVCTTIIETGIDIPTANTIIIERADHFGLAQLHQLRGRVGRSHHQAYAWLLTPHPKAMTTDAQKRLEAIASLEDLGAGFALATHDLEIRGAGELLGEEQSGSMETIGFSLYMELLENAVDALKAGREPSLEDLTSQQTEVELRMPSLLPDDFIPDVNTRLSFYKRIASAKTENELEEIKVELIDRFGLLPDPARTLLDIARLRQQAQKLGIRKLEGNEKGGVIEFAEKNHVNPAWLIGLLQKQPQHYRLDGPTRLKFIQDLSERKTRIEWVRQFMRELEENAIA
Sequence of UniProt Q9Y3A3 (whole entry, looked up): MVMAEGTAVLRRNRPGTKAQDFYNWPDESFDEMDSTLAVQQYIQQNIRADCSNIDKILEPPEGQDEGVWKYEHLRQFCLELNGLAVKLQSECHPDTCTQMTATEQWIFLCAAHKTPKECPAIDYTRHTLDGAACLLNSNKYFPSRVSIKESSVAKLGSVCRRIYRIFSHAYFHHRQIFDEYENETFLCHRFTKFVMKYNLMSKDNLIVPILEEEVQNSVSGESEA
Sequence of UniProt P55210 (whole entry, looked up): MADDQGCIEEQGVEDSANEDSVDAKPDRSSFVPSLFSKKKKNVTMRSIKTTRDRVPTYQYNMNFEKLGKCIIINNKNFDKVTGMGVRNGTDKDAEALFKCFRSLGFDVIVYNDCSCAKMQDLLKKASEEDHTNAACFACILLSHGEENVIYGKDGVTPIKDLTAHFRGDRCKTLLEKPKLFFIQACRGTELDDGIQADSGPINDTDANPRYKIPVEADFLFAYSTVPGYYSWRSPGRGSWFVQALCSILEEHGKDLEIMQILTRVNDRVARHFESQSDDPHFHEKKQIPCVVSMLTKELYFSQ
Sequence of UniProt P00921 (whole entry, looked up): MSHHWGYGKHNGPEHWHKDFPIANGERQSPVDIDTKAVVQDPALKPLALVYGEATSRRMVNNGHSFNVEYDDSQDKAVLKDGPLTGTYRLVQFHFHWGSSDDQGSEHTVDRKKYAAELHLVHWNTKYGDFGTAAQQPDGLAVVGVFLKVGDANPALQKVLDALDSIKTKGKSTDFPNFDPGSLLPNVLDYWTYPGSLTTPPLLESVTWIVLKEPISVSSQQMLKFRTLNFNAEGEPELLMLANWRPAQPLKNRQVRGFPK
Sequence of UniProt Q9HB29 (whole entry, looked up): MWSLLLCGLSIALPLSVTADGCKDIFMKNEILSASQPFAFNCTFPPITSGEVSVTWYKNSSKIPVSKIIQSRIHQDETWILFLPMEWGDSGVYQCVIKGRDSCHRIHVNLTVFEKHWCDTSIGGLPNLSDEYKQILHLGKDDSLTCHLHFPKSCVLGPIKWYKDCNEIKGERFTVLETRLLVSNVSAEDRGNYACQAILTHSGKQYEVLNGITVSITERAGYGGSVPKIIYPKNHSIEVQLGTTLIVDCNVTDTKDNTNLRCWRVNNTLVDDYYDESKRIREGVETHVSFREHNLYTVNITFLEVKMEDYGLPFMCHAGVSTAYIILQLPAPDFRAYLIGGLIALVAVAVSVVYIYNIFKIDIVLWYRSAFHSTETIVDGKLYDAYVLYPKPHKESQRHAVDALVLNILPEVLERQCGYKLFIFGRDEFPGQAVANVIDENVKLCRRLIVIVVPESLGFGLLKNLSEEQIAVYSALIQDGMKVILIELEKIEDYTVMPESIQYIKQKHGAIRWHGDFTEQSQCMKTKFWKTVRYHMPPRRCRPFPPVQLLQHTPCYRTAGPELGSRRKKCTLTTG
Sequence of UniProt P50990 (whole entry, looked up): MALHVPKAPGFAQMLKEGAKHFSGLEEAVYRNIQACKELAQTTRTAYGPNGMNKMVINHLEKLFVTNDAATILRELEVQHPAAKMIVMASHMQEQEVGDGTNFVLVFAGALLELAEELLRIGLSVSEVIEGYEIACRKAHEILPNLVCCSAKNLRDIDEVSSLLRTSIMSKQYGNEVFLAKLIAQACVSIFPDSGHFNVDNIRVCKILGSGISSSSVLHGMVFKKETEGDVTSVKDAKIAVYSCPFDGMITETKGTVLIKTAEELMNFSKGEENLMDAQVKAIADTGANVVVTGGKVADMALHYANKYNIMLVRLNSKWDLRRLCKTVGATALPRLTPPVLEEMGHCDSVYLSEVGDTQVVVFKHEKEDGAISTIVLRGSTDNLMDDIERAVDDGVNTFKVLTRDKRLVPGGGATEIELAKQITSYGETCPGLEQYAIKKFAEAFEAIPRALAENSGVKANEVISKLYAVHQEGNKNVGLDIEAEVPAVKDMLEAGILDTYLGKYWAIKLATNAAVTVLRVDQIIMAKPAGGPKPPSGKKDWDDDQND
Sequence of UniProt P30968 (whole entry, looked up): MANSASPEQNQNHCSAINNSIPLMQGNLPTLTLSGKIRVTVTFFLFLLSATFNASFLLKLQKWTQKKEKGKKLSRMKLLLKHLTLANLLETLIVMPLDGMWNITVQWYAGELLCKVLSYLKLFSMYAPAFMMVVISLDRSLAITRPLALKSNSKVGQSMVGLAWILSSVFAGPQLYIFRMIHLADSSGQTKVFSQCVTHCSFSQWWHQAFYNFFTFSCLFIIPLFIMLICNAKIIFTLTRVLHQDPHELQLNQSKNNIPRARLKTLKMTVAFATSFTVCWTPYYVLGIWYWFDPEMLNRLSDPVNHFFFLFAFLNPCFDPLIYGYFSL

For `COc1ccc(C(OCCN2CCCC(C(=O)O)C2)(c2ccc(OC)cc2)c2ccc(OC)cc2)cc1` (centres unmarked), the [3H]-GABA uptake was 812 a.u. and 3100 a.u. and 2950 a.u. and 982 a.u. and 1050 a.u. and 652 a.u. and 937 a.u. and 690 a.u. (SLC6A1 (Homo sapiens, UniProt P30531); GABA transport, inhibitor, radioligand uptake; HEK293F transfected; 20 µM, 15 min pre, 45 min uptake, room temperature, together with: [3H]-GABA 30 nM, GABA 25 µM; higher = more uptake).
With `CC(=O)N[C@@H](CCC(N)=O)C(=O)N[C@@H](CC(C)C)C(=O)N[C@@H](CCCC(=O)O)C(=O)N1CCC[C@H]1C(=O)N[C@@H](CC(=O)O)C(=O)COC(=O)c1c(C)cccc1C` the kinact/KI was 67000 M⁻¹ s⁻¹ (Caspase-7 (CASP7, Homo sapiens, UniProt P55210); enzyme activity, inhibitor).
With `N=C(N)Nc1ccc(CNC(=O)c2cc(-c3ccccc3)n(-c3ccccc3)n2)cc1` the inhibition was 33% (Genome polyprotein, NS2B-NS3 protease (dengue virus type 2, UniProt P29990); enzyme activity, fluorogenic AMC substrate; 50 µM).
`CC(C)[C@@H]1NC(=O)[C@H](Cc2ccccc2)NC(=O)CSC[C@@H](C(N)=O)NC(=O)[C@H](CCC(=O)O)NC(=O)[C@H](CO)NC(=O)[C@H](Cc2c[nH]c3cccc(Cl)c23)NC(=O)[C@H](C2CCCCC2)NC(=O)[C@H](C(C)C)NC(=O)[C@H](Cc2ccc(O)cc2)NC(=O)[C@H](CC(=O)O)NC(=O)[C@H](Cc2c[nH]c3ccccc23)NC(=O)[C@H](Cc2ccc(N)nc2)NC(=O)[C@H](Cc2c[nH]c3ccc(Cl)cc23)NC(=O)[C@H](CCC(=O)O)NC1=O` has a remaining activity of 5.11% (Interleukin-1 receptor-like 2 (IL1RL2, Homo sapiens, UniProt Q9HB29); IL-8 release, antagonist; A-431; 4 µM, 18 h, together with: IL-36 10 ng/mL; baseline: untreated).
For `Cc1ccc(C(=O)NC(C)c2cccc(-c3ccncc3)c2)cn1` (centres unmarked), “number of kinases hit” read 2 (human kinase panel; binding, KINOMEscan; 10000 nM, %Ctrl below 35).
Under binding, `Nc1nc2c(ncn2[C@H]2C[C@H](O)[C@@H](CO)O2)c(=O)[nH]1` is recorded as “binds” (T1, riboswitch RNA U39C; fluorescence; 5 µM).
`CN(C)S(=O)(=O)c1ccc(S(=O)(=O)N2CCC(n3c(=O)[nH]c4ccccc43)CC2)cc1` has an ATPase activity of 0.0282 µM phosphate (mfd, C-terminal domain (Escherichia coli, UniProt P30958); phosphate release; 3.3 µM, 30 min, together with: ATP 0.0024 mM).
For `Cc1cc(C#CC2(O)CCCCC2)cc2c1cc(C(=O)O)n2-c1cccc(Cl)c1`, the ΔH was -46.4 kJ/mol (Microphthalmia-associated transcription factor, residues 1-296 (Homo sapiens, UniProt O75030); isothermal titration calorimetry; 25 °C).
`CCCCCCCCCCCCC/C=C/C=O`: “isoTOP-ABPP competition ratio” 1.2 (MOB4 (Homo sapiens, UniProt Q9Y3A3); competitive isoTOP-ABPP; proteome, soluble, MDA-MB-231; 100 µM, 60 min, together with: iodoacetamide probe; baseline: DMSO over compound-treated, higher = stronger cysteine blockade).
`NS(=O)(=O)c1ccc(CN2C(=O)c3ccc(N4CCOCC4)cc3C2=O)cc1` gave an emission maximum of 542 nm (CA2 (Bos taurus, UniProt P00921); binding).
For `CC(C)C[C@H](NC(=O)[C@@H](CCCCNC(=O)[C@@H](Cc1ccccc1)NC(=O)CCCCCCCNC(=O)CN1CCN(CC(=O)O)CCN(CC(=O)O)CCN(CC(=O)O)CC1)NC(=O)[C@H](Cc1ccc(O)cc1)NC(=O)[C@H](CO)NC(=O)[C@H](Cc1c[nH]c2ccccc12)NC(=O)[C@H](Cc1c[nH]cn1)NC(=O)[C@@H]1CCC(=O)N1)C(=O)N[C@@H](CCCNC(=N)N)C(=O)N1CCC[C@H]1C(=O)NCC(N)=O` [indium-111 labelled], “specific binding blocked” read 79% (GNRHR (Homo sapiens, UniProt P30968); radioligand binding; concentration not given, 3 h, 25 °C, together with: 1 µM unlabelled competitor).
`Cc1ccc(-c2c[nH]nc2C(=O)NC2CC2)cc1`: “number of kinases hit” 0 (human kinase panel; binding, KINOMEscan; 10000 nM, %Ctrl below 1).
`C=CC(=O)N1CCCC(n2c(=O)c3ncccc3n(Cc3ccc(Oc4ccccc4)cc3)c2=O)C1` (centres unmarked) — result for “melting temperature shift”: -1.31 (CCT8 (Homo sapiens, UniProt P50990); thermal proteome profiling; cell proteome; unit not given; baseline: vehicle).
For `O=C(O)Cc1cc2c(cc1C(=O)c1ccc(Cl)cc1Cl)OCO2`, “deactivation time constant” read 10.9 ± 0.8 ms (Gria2 (Rattus norvegicus, UniProt P19491); whole-cell patch clamp; HEK-293T; concentration not given, together with: glutamate).

A few entries again:
With `CC(=O)N[C@@H](CCC(N)=O)C(=O)N[C@@H](CC(C)C)C(=O)N[C@@H](CCCC(=O)O)C(=O)N1CCC[C@H]1C(=O)N[C@@H](CC(=O)O)C(=O)COC(=O)c1c(C)cccc1C` the kinact/KI was 67000 M⁻¹ s⁻¹ (Caspase-7 (CASP7, Homo sapiens, UniProt P55210); enzyme activity, inhibitor).
With `N=C(N)Nc1ccc(CNC(=O)c2cc(-c3ccccc3)n(-c3ccccc3)n2)cc1` the inhibition was 33% (Genome polyprotein, NS2B-NS3 protease (dengue virus type 2, UniProt P29990); enzyme activity, fluorogenic AMC substrate; 50 µM).
